Results of several laboratories.
Compare with care: the assays were run in different laboratories. ± marks the error that the study gave.
Sequence of UniProt P42338 (whole entry, looked up): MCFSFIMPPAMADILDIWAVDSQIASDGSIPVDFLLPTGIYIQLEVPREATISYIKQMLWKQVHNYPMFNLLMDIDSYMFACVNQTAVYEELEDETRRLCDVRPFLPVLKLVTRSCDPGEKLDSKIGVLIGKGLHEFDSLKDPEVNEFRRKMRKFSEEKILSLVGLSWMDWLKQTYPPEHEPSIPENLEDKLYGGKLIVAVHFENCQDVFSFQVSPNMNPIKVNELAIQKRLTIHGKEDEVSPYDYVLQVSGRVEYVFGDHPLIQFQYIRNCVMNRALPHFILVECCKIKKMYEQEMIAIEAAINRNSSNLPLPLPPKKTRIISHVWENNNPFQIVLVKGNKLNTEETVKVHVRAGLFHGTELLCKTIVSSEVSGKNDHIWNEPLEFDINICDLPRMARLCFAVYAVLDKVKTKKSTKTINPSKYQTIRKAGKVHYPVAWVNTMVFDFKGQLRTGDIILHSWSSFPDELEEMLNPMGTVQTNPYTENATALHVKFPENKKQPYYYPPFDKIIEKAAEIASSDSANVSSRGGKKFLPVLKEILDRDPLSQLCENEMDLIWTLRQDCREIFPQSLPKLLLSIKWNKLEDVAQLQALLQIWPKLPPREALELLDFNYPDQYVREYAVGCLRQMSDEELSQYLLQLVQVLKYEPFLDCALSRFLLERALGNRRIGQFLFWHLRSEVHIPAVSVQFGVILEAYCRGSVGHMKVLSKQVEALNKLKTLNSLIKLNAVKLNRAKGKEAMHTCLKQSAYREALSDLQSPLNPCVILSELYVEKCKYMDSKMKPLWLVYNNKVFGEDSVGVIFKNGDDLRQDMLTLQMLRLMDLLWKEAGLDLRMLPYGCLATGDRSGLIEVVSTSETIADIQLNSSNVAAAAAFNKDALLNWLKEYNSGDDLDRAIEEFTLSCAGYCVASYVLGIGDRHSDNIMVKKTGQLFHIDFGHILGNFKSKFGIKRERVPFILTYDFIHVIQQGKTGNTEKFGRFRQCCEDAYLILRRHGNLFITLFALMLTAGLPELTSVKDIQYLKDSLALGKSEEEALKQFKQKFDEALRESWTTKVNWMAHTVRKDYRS

Compound	tested on	test	test system	conditions	how to read	quantity	value
Oc1c(Br)ccc2cccnc12	Corynebacterium diphtheriae	agar dilution	NCTC 10356	–	–	MIC	35.7 µM
CO[C@H]1O[C@H](COC(c2ccccc2)(c2ccccc2)c2ccccc2)[C@@H](OS(=O)(=O)c2ccccc2)[C@H](OS(=O)(=O)c2ccccc2)[C@H]1OS(=O)(=O)c1ccccc1	Aspergillus flavus	mycelial growth, poisoned food technique	–	20 µg/µL, DMSO	–	inhibition	66.46 ± 0.3%
CC(=O)NCCN(CCC(=O)NCCN(CCC(=O)NCCN(CCC(=O)NCCC(N)=O)C(=O)[C@@H](N)Cc1ccccc1)C(=O)[C@@H](N)CCCNC(=N)N)C(=O)[C@@H](N)Cc1ccccc1	HIV-1 TAR RNA	–	–	concentration not given, 25 °C	–	binding entropy term TΔS°	0.191 ± 0.0717 kcal/mol
CCCOC(=O)N1c2cc(CNC)ccc2[C@H](NC(=O)C(=O)Nc2ccc(Cl)c(F)c2)[C@H]1CNC(=N)N	HIV-1	pseudovirus infection, Env pseudovirus neutralisation	TZM-bl, clade A	–	–	IC50	2620 nM
N#Cc1ccc2cccc(O)c2n1	Corynebacterium diphtheriae	agar dilution	NCTC 10356	–	–	MIC	> 1500 µM
F[P-](F)(F)(F)(F)F.OC(Cn1cncn1)(Cn1cc(-[c-]2cccc2)nn1)c1ccc(F)cc1F.[Co+3].c1cc[cH-]c1 (racemic)	Brugia pahangi	motility, Worminator	adult female	50 µM, 1 d	–	inhibition	20%
O=[N+]([O-])c1cccc(S(=O)(=O)NC[C@@H](O)[C@@H]2CCc3cc(F)ccc3O2)c1	Aspergillus flavus	poison plate technique	–	–	–	MIC	15.2 ± 0.8 µg/mL
C[C@H](Nc1ncnc(N)c1C#N)c1c(-c2ccccc2)[nH]c2c(Cl)cccc2c1=O	PIK3CB (Homo sapiens, UniProt P42338)	AKT phosphorylation	PC-3	together with: LPA	baseline: IC50 PIK3CB over PI3Kδ	selectivity ratio	137 fold
COc1ccc(-c2cc(=O)c3c(O)c(OC)c(O)c(OC)c3o2)cc1O	Human immunodeficiency virus 1	viral replication, inhibitor, luciferase	MT2	48 h	–	IC50	2700 nM
C=C1C[C@](OC)([C@H](O)C(=O)NC[C@@H]2C[C@@H](OC)C(C)(C)[C@@H](C[C@@H](COC)OC)O2)O[C@H](C)[C@@H]1C	HEK-293T	cell viability, sulforhodamine B	–	48 h, 37 °C, without H2O2	–	IC50	7.5 ± 0.3 nM
CC(=O)NCCN(CCC(=O)NCCN(CCC(=O)NCCN(CCC(=O)NCCC(N)=O)C(=O)[C@@H](N)CCCNC(=N)N)C(=O)[C@@H](N)CCCNC(=N)N)C(=O)[C@@H](N)Cc1ccccc1	HIV-1 TAR RNA	–	–	concentration not given, 25 °C	–	binding entropy term TΔS°	-4.02 ± 0.12 kcal/mol
CNCc1ccc2c(c1)N(C(=O)OCc1c(F)c(F)c(F)c(F)c1F)[C@H](CNC(=N)N)[C@H]2NC(=O)C(=O)Nc1ccc(Cl)c(F)c1	Human immunodeficiency virus 1	viral infection, Env pseudovirus	TZM-bl, CAP210.2.00.E8 clade C	–	–	IC50	958 nM

For quick reference, copied from above:
Compound	tested on	test	test system	conditions	how to read	quantity	value
C[C@H](Nc1ncnc(N)c1C#N)c1c(-c2ccccc2)[nH]c2c(Cl)cccc2c1=O	PIK3CB (Homo sapiens, UniProt P42338)	AKT phosphorylation	PC-3	together with: LPA	baseline: IC50 PIK3CB over PI3Kδ	selectivity ratio	137 fold
